Assay results from different studies.
Every numbered part comes from another study and shows a few of its results, in no order.

Series 1
Target: RNA binding protein fox-1 homolog 2, RRM domain, GST-SBP tag (RBFOX2, Homo sapiens, UniProt O43251-10, residues 100-194)
Technique: RNA Bind-n-Seq
Molecule type: RNA
Matrix: in vitro
Tested at: 365 nM
Setting: natural RNA segment, single round, ends assumed
Baseline: no-protein control
Direction: higher = stronger binding
All sequences stand within: GGGAGUUCUACAGUCCGACGAUC … UGGAAUUCUCGGGUGCCAA
Residues (chain): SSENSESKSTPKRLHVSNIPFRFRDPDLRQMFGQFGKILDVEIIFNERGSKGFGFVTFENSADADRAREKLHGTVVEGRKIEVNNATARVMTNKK
Oligonucleotide	RBNS enrichment (R)
AGACCCCUCUGAGGGGUAUCUGUUCUGCAGCCCCUAGUGAAAUCAUGUGAUGUGAGACAGAAACCUAAACAUGGUACUUGAUUCUAAACCUGUGCCAGUCUAUAGCCUCU	0.442
UAAACCGUAUAUUGAAAAAAACAGAAUGUCACUAAAUGCAUAUUAAGUCAAGUAUUGGAAAGUAUAAAAGAAAAAUCAUUCUGACAAUUUCUAAGCCAGAAGCAAACAAG	0.736
AAGACAAAGAAAUUGUCCUCCAACUCAGCUUUUCCCCCCCUGUUUGGGUGAAAGUGGUUCUAGAACCUGCACUGAAUAGUAGUAAAGCAAUAAGGCCCGAUUCAUCCCAC	0.318
UUAGCAAGAUGAGCUUCUGGGGUCCUUAUGUUGGUAAUGGUGCCAUGUCCAGACCCACAGCAGAGUGAAGUCUGAGUGCUCCUAACAACCCACAGCAGCCACGCUAGAAG	0.404
UGACUUCUGCCUGGAGACUUAGGGCACCAGGGGUUUCUCGCAUAGGACCUUUCCACCACAGCCAGCACCUGGCAUCGCACCAUUCUGACUCGGUUUCUCCAAACUGAAGC	0.433
CAUUUUCACAAUAAACAGAUCUGUUCAUACAUUUUUGUUAUUUUAUAAAUAAAUUACUUAAUUUUAGUUUGUAUCUGUGGGAUUUUUUUUUUUACCUUGCUGCCUACAUU	1.65
AACCGGCAUGGAUGUGACCGGAAUGCCAUGGCCUAUCCAAGAGGAAAGGUGACCUCAGAUGCACCUGUUUUCAGCCUGUGCUUUUGUUCUAGUAAAGACAUUUAAACCAA	0.354
CUUGAUCCUUUGACCAAGAAGAUCCAGUCCCAAUAUGUCACCUGUGCUUCAUCUUUGGACUAUAUCUCAGGUGUUUACGUGUCAACUAAUGGGAGCUUACUGGGUUAGAA	0.279

Series 2
Target: Interferon regulatory factor 3, full length, phosphomimetic (IRF3, Homo sapiens, UniProt Q14653, residues 1-427, S386D/S396D/S398D/S402D/T404D/S405D)
Sequence of UniProt Q14653 (whole entry, unmodified, looked up): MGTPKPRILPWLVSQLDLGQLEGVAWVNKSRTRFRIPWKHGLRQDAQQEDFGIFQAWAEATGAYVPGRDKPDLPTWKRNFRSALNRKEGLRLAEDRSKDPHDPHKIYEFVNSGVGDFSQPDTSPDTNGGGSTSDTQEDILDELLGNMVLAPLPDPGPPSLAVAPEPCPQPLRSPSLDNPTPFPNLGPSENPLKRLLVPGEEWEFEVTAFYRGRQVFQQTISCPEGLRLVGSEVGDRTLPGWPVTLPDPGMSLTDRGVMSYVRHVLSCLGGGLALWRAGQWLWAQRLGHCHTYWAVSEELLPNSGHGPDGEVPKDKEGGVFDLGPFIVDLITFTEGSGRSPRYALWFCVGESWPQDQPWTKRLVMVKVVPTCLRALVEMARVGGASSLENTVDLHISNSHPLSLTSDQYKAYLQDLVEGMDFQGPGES
Technique: protein-binding microarray
Molecule type: double-stranded DNA, one strand shown
Matrix: in vitro
Tested at: 2540 nM top
Setting: 60-bp whole probe
Together with: salmon DNA 0.4 mg/ml
Baseline: random background probes
Direction: higher = stronger binding
All sequences stand within: GCCTAGCAC … GTCTTGATTCGCTTGACGCTGCTG
Oligonucleotide	fitted relative affinity [z-score]
TCAAGAATGTCCTTTCTCACTGTGCTA	3.61
TTAGATTTCGCGACTGGATTAGTGCTA	0.123
GACGGTTTCGACTATAGGGACGTGCTA	2.83
TTAGATATCGGGGATCGATTAGTGCTA	-0.287
GGTTTTTACTTTCTGAATGCGTGCTAG	4.11
TTAGGTATCGTCTATCGGTTAGTGCTA	0.394
TTAGGACTGGGGTTTCGGTCAGTGCTA	1.27
TCATCTGTCCGTGCTCAGACTGTGCTA	0.468
GACGGACTGGGGACTGAGGACGTGCTA	-0.956
CTCTTCTTGCATCTGGGTATGTGCTAG	1.33
TTGTTTCCATTTTCTGAATGCGTGCTA	9.28
GACGATATCAGTCTCGAGGCGTGCTAG	1.04
TTAGGTATCCTTCTCATTTAGTGCTAG	7.52
TTAGATATCGGCTTTCGATTAGTGCTA	0.427
GACGGTCTCCTTTGCCTGACGTGCTAG	1.19
TTAGGATTGGGTATCGGTTAGTGCTAG	0.819

Series 3
Target: PABPC1L2, full length, GST fusion (mouse, UniProt A0ABA7IW68)
Technique: RNAcompete
Molecule type: RNA
Matrix: in vitro
Tested at: 20 nM
Setting: 7-mer, probes averaged, single round
Baseline: mean of 7-mers
Direction: higher = stronger binding
Residues (chain): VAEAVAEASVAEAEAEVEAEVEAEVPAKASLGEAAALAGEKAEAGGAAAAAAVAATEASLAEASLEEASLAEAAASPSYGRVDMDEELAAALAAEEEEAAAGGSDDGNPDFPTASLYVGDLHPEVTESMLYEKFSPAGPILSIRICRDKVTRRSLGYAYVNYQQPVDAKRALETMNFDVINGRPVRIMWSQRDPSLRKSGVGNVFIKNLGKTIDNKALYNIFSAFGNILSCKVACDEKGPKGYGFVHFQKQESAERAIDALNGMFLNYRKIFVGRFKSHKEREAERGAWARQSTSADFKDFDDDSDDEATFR
Oligonucleotide	7-mer Z-score
UGGCACU	0.148
GCGAUAG	-0.00108
AUUAAAU	0.809
AGAAGUU	-0.126
UUGAACG	-0.271
GUCUCGA	-0.277
CUGCGCC	-0.476
GUUUAAG	-0.217
CUUGUAA	-0.101
CGAUAGG	0.0207
UGUGUGA	-0.273
UCAUAGA	-0.0409
GGGCCAC	-0.0645
CGGCAAA	0.8
AGCCGGC	-0.313
UGGCGCC	-0.186
GCCGUUU	-0.586
GAAAGCC	-0.0264
ACGAUAC	-0.00289
AAUGCGG	0.396
UAAAAGG	1.29

Series 4
Target: Histone acetyltransferase KAT6A, winged helix 2, GST fusion (KAT6A, Homo sapiens, UniProt Q92794, residues 85-181)
Technique: protein binding microarray
Molecule type: double-stranded DNA, one strand shown
Matrix: in vitro
Tested at: not given
Setting: 8-mer, flanks averaged, mean of 2 arrays, mostly near background
Baseline: not given
Direction: higher = stronger binding
Target sequence (chain): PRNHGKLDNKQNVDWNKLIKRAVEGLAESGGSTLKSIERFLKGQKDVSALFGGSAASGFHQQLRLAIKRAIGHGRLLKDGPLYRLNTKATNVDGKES
Oligonucleotide	E-score
GCCGGCAC	0.221
CGCGAACG	0.0621
GAATGACC	-0.141
ATGACCGG	-0.138
ACAGAGGT	-0.0697
GTTTGGCA	0.00469
AGTTTTGG	0.0434
AAGACGAC	-0.0622
CTTTCCTA	-0.0716
AGCCCCGA	0.0422
CTCGGGCC	0.068
CTCAAGTC	-0.182
ACCAGAGT	-0.0966
CGGCTGCA	0.155
TCGATAAA	-0.0426
GTGACAAC	-0.0226
AAATCATC	-0.0273
TAAGGGCA	-0.0192
CTTTTAAA	0.0443
CCACTCCA	0.0258
GAGACAAC	0.0125
ATAATCTA	-0.0704
GCCCCACC	0.172
ACGGCTAA	0.0908

Some of these lines once more (series 4):
Oligonucleotide	E-score
AGCCCCGA	0.0422
CTCGGGCC	0.068
CTCAAGTC	-0.182
ACCAGAGT	-0.0966
CGGCTGCA	0.155
